Assay results gathered from unrelated publications.
Compare with care: the assays were run in different laboratories. “And” joins repeats or separate records; there may be more than shown. ± gives the spread as reported.
PTGDR: Prostaglandin D2 receptor (PTGDR, Homo sapiens, UniProt Q13258)
CDK9 with cyclin T1: Cyclin-dependent kinase 9, with cyclin T1 (CDK9, Homo sapiens, UniProt P50750)

Cc1cc2sc(N)nc2c2cc(C(F)(F)F)cnc12
EC50 (KCNN4/CALM1 (Homo sapiens, UniProt O15554+P0DP23); ion current, activator, patch clamp): > 30 µM

O=c1c2sccc2n(CC2COc3ccccc3O2)c(=O)n1O (stereo not drawn)
EC50 (Flap endonuclease 1 (Homo sapiens, UniProt P39748); target engagement in cells): 5.1 µM

O=C(O)c1ccc(-c2nc(-c3cccc(C(F)(F)F)c3)cs2)cc1
EC50 (Peroxisome proliferator-activated receptor alpha (PPARA, Homo sapiens, UniProt Q07869); binding, TR-FRET): no binding

O=C(O)COc1cccc(NC(=O)c2cc(-c3cccc(F)c3)ccc2F)c1
EC50 (PTGDR; calcium signal, agonist, fluorescence): > 10 µM

Cc1cccc2[n+]1[Ir-3]13([c]4ccccc4-c4ccc5ccc(Cl)cc5[n+]41)([c]1ccccc1-c1ccc4ccc(Cl)cc4[n+]13)[n+]1c(C)cccc1-2.F[P-](F)(F)(F)(F)F
EC50 (CDK9 with cyclin T1; enzyme activity, inhibitor): 0.0501 µM

O=C(O)/C=C/c1cccc(NC(=O)c2cc(-c3ccccc3)ccc2F)c1
EC50 (PTGDR; calcium signal, agonist, fluorescence): > 10 µM

O=C(c1cc2c(s1)CCCCC2)N1CCC(n2c(=O)[nH]c3ccccc32)CC1
EC50 (Short transient receptor potential channel 6 (TRPC6, Homo sapiens, UniProt Q9Y210, K676R); channel activation, agonist, whole-cell patch clamp): 4.08 ± 1.04 µM

O=C(C1CCCCC1)N1CC(=O)N2CCc3ccccc3[C@@H]2C1
EC50 (TRPM channel (Clonorchis sinensis, UniProt G7YJJ5); calcium influx, agonist, FLIPR calcium; HEK293 transfected): 0.193 ± 0.11 µM

Nc1ncnc2c1ncn2C1OC(COP(=O)(O)OP(=O)(O)OCC2OC(O)C(O)C2O)C(O)C1O (stereo not drawn)
EC50 (TRPM2, truncated at residue 1242 (Nematostella vectensis, UniProt A7T1N0); channel activation, activator, inside-out patch clamp; with: 125 µM Ca2+): 7.4 ± 0.7 µM

O=C(Nc1c(-c2cccs2)nc2ccccn12)c1ccc(Cl)cc1
EC50 (Gamma-aminobutyric acid receptor subunit alpha-4/beta-2/delta (Homo sapiens, UniProt O14764+P47870+P48169); positive allosteric modulator, FLIPR membrane potential; HEK293 Flp-In; with: GABA EC20): 1.41 µM

CCOP(=O)(OCC)c1cc[n+]2c(c1)-c1cc(P(=O)(OCC)OCC)cc[n+]1[Ir-3]213([c]2ccccc2-c2ccc4ccc(Cl)cc4[n+]21)[c]1ccccc1-c1ccc2ccc(Cl)cc2[n+]13.F[P-](F)(F)(F)(F)F
EC50 (CDK9 with cyclin T1; enzyme activity, inhibitor): > 1 µM

COc1ccc(Cn2ccc3ccc(C(=O)NO)cc32)cc1
EC50 (MBLAC2 (Homo sapiens, UniProt Q68D91); palmitoyl-CoA hydrolysis, inhibitor; with: [3H]palmitoyl-CoA): 1 µM

COc1ccc(CNC(=O)[C@H]2CN(C(=O)[C@H](F)Cl)CCN2S(=O)(=O)c2ccc(OC)cc2)cc1
EC50 (Non-POU domain-containing octamer-binding protein (Homo sapiens, UniProt Q15233)): 9 µM

CC1(CO)CCCC2(C)C1CCC1(C)c3cocc3CCC12 (stereo not drawn)
EC50 (Androgen receptor (Ar, Rattus norvegicus, UniProt P15207)): 1.6 µM

Clc1ccc2ccc3[n+](c2c1)[Ir-3]12([c]4ccccc4-3)([c]3ccccc3-c3ccc4ccc(Cl)cc4[n+]31)[n+]1ccccc1-c1cccc[n+]12.F[P-](F)(F)(F)(F)F
EC50 (CDK9 with cyclin T1; enzyme activity, inhibitor): 0.0033 ± 0.0012 µM

COC(=O)[C@@]1(C)C=C(C(=O)Nc2cccc(C(=O)Nc3ccc(Nc4nccc(-c5cccnc5)n4)c(C)c3)c2)C(=O)CC1
EC50 (Mitogen-activated protein kinase 8 (MAPK8, Homo sapiens, UniProt P45983); target engagement, NanoBRET; HEK293; 2 h, with: tracer K-5): 0.0115 µM and ~0.01 µM

Clc1ccc2ccc3[n+](c2c1)[Rh-3]12([c]4ccccc4-3)([c]3ccccc3-c3ccc4ccc(Cl)cc4[n+]31)[n+]1ccccc1-c1cccc[n+]12.F[P-](F)(F)(F)(F)F
EC50 (CDK9 with cyclin T1; enzyme activity, inhibitor): 0.162 µM

CC[C@H](C)[C@H](NC(=O)[C@H](CO)NC(=O)[C@H](Cc1ccc(O)cc1)NC(=O)[C@H](CC(=O)O)NC(=O)[C@H](CO)NC(=O)[C@@H](NC(=O)[C@H](Cc1ccccc1)NC(=O)[C@@H](NC(=O)CNC(=O)[C@@H]1CCCN1C(=O)[C@H](C)NC(=O)[C@@H](N)Cc1ccc(O)cc1)[C@@H](C)O)[C@@H](C)CC)C(=O)N[C@@H](C)C(=O)N[C@@H](CCSC)C(=O)N[C@@H](CC(=O)O)C(=O)N[C@@H](CCCCN)C(=O)N[C@H](C(=O)N[C@@H](Cc1c[nH]cn1)C(=O)N[C@@H](CCC(N)=O)C(=O)N[C@@H](CCC(N)=O)C(=O)N[C@@H](CC(=O)O)C(=O)N[C@@H](Cc1ccccc1)C(=O)N[C@H](C(=O)N[C@@H](CC(N)=O)C(=O)N[C@@H](Cc1c[nH]c2ccccc12)C(=O)N[C@@H](CC(C)C)C(=O)N[C@@H](CC(C)C)C(=O)N[C@@H](C)C(=O)N[C@@H](CCC(N)=O)C(=O)N[C@@H](CCCCN)C(=O)NCC(=O)N[C@@H](CCCCN)C(=O)N[C@@H](CCCCN)C(=O)N[C@@H](CC(N)=O)C(=O)N[C@@H](CC(=O)O)C(=O)N[C@@H](Cc1c[nH]c2ccccc12)C(=O)N[C@@H](CCCCN)C(=O)N[C@@H](Cc1c[nH]cn1)C(=O)N[C@@H](CC(N)=O)C(=O)N[C@H](C(=O)N[C@H](C(=O)N[C@@H](CCC(N)=O)C(=O)O)[C@@H](C)O)[C@@H](C)CC)C(C)C)[C@@H](C)CC
EC50 (Gastric inhibitory polypeptide receptor (Rattus norvegicus, UniProt P43219); cAMP, agonist): 0.015 µM

CCc1nc(-c2ccc(-c3ccc(CCC(N)(CO)CO)cc3)cc2)co1
EC50 (Sphingosine 1-phosphate receptor 4 (S1PR4, Homo sapiens, UniProt O95977); β-arrestin recruitment, agonist): 0.367 µM

COc1ccc(C(=O)/C=C(\O)C(F)(F)C(F)(F)F)cn1
EC50 (Formate-nitrite transporter (Plasmodium falciparum, UniProt O77389); cell viability, resazurin; yeast expressing Formate-nitrite transporter; 72 h, L-lactate medium): 0.05 µM

O=C(Nc1cc(F)ccn1)C12CC1/C(=N\O)c1ccccc1O2 (single isomer, unassigned; (+))
EC50 (Metabotropic glutamate receptor 4 (GRM4, Homo sapiens, UniProt Q14833); calcium mobilisation, positive allosteric modulator; CHO hmGluR4/Gqi5; with: glutamate EC20): > 5 µM

CC(C)c1cc2c(cc1O)[C@@]1(C(=O)O)CCCC(C)(C)[C@@H]1CC2
EC50 (Potassium voltage-gated channel subfamily A member 2 (KCNA2, Homo sapiens, UniProt P16389); human cells): 13 µM

Cc1cc2c(cc1C)N[C@H](CC(=O)Nc1ccc(N3CCOCC3)cc1)C(=O)N2
EC50 (Protein kinase C zeta type (PRKCZ, Homo sapiens, UniProt Q05513); enzyme activity, activator, ADP detection): 1.09 µM

C[C@H](NC(=O)[C@H](CC(N)=O)NC(=O)[C@H](Cc1c[nH]c2ccccc12)NC(=O)[C@H](CCCNC(=N)N)NC(=O)[C@@H](Cc1ccccc1)NC(=O)[C@H](Cc1c[nH]cn1)NC(=O)[C@H](CCCN=[N+]=[N-])NC(=O)[C@@H](N)Cc1ccc(O)cc1)C(=O)N[C@@H](Cc1ccccc1)C(=O)N[C@@H](CCCN=[N+]=[N-])C(=O)N[C@@H](Cc1ccc(O)cc1)C(N)=O
EC50 (Melanocortin receptor 3 (Mus musculus, UniProt P33033); agonist): 0.674 ± 0.162 µM

For quick reference, copied from above:
COC(=O)[C@@]1(C)C=C(C(=O)Nc2cccc(C(=O)Nc3ccc(Nc4nccc(-c5cccnc5)n4)c(C)c3)c2)C(=O)CC1
EC50 (Mitogen-activated protein kinase 8 (MAPK8, Homo sapiens, UniProt P45983); target engagement, NanoBRET; HEK293; 2 h, with: tracer K-5): 0.0115 µM and ~0.01 µM

Clc1ccc2ccc3[n+](c2c1)[Rh-3]12([c]4ccccc4-3)([c]3ccccc3-c3ccc4ccc(Cl)cc4[n+]31)[n+]1ccccc1-c1cccc[n+]12.F[P-](F)(F)(F)(F)F
EC50 (CDK9 with cyclin T1; enzyme activity, inhibitor): 0.162 µM
